Results of several laboratories.
Parts stem from different laboratories: compare values within a part only.

Block 1
Target: human cyclin B2
Effect on: peptide binding
Method: yeast competitive growth sequencing
Form: peptide
Organism: Saccharomyces cerevisiae
Strain: cyclin B2-Cln2 fusion
Concentration: concentration not given
Setting: library 1
Reading: direction not given
Molecule	binding enrichment score
GSPLAKAFTSTGL	0.363
GSPAKKLFTSTGL	0.12
GSALKKLFTSTGL	-1.04

Block 2
Target: Histone acetyltransferase KAT6A, winged helix 1, GST fusion (KAT6A, Homo sapiens, UniProt Q92794, residues 1-85)
Method: protein binding microarray
Form: double-stranded DNA, one strand shown
Matrix: in vitro
Concentration: not given
Setting: 8-mer, flanks averaged, mean of 2 arrays, mostly near background
Relative to: not given
Reading: higher = stronger binding
Residues (chain): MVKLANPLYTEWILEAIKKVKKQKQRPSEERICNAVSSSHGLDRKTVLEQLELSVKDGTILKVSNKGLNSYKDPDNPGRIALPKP
Sequence	E-score
GTGCCGCA	0.247
CACCACAC	-0.0386
CCGGGTCC	0.329
CTGGGGGA	-0.0998
CCTCTGAA	-0.109
AGGTTCGC	0.157
ATTTTATA	0.0715
GTCTCGGA	0.0832
GAATGAGA	-0.0598
ATTTCCCA	-0.292
ATCGGATC	0.0668
AGAGAAAC	-0.158
ACCGCTTC	0.202
GTATGACA	-0.0722
ACGCTATC	0.0469
CCGCGATA	0.353
AACACGTC	-0.00771
GAGGACGC	0.191

Block 3
Target: Interferon regulatory factor 5, full length, phosphomimetic (IRF5, Homo sapiens, UniProt Q13568-2, residues 1-514, K96S/S451D/S453D/S456D/S462D)
Method: protein-binding microarray
Form: double-stranded DNA, one strand shown
Matrix: in vitro
Concentration: 250 nM
Setting: 60-bp whole probe
With: salmon DNA 0.4 mg/ml
Relative to: random background probes
Reading: higher = stronger binding
Constant ends, left off below: GCCTAGCAC … GTCTTGATTCGCTTGACGCTGCTG
Sequence	log fluorescence
TTAGGACTGGACTTTCGGTTAGTGCTA	9.01 z-score
TTAGATTTCAGTTCCGATTGGTGCTAG	2.56 z-score
GACGATTTGAGTCTCGAGACGTGCTAG	-0.00922 z-score
GACGGACTGCTTATCCTGAGGTGCTAG	-0.281 z-score
GACGAACTGGAGTTTCGAGACGTGCTA	3.25 z-score
TTAGGATTCCTTATCCTTTAGTGCTAG	-0.0331 z-score
GACTATCTCAGACTGGAGACGTGCTAG	-0.164 z-score
TTAGATTTCAAACTGGATTAGTGCTAG	0.0478 z-score
ACCCGTACTGGGTCTGGATCGTGCTAG	-0.382 z-score
TGAGATCTCAGTCTCGATTAGTGCTAG	0.618 z-score
TTAGATACCAGTTTCGATTAGTGCTAG	9.53 z-score
GACGAACTGAGTCTCGGGACGTGCTAG	-0.323 z-score
GACGCTATCAGACTGGAGACGTGCTAG	0.0692 z-score
GACGGTTCCGGTTTCGAGACGTGCTAG	4.22 z-score
GACGGTCTCGGTTTCGGGACGTGCTAG	3.24 z-score
TTAGGTTTCGACACTGGGTTCGTGCTA	5.54 z-score
GACCAACTGAGTCTCGAGACGTGCTAG	-0.226 z-score
TCACTTTTTTTAATTGAACTGTGCTAG	0.928 z-score

Block 4
Target: RING finger protein unkempt homolog, zinc fingers 1-6, GST-SBP tag (UNK, Homo sapiens, UniProt Q9C0B0, residues 30-357)
Chain of UniProt Q9C0B0 (30-357, looked up): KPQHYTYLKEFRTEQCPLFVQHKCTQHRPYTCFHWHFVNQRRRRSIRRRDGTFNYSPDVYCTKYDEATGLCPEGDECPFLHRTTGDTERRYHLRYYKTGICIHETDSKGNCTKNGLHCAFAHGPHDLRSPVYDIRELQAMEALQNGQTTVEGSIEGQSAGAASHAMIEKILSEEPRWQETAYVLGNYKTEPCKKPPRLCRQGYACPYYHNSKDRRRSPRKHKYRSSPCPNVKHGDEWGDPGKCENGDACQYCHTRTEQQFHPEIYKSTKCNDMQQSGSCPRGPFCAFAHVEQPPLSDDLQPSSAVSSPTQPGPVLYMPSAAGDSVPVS
Method: RNA Bind-n-Seq
Form: RNA
Matrix: in vitro
Concentration: not given
Setting: RNA with constant flanks, human-mouse chimeric sites, ends assumed
Relative to: input RNA pool
Reading: higher = stronger binding
Constant ends, left off below: GGGAGUUCUACAGUCCGACGAUC … CAACAGAGGAUUGAGCAUCA
Sequence	bound/input enrichment
UCAGUCUUUUUGUACAGCUUUGUAAAUUGUAUAGCUUUUUAUAUUGCCAUGUUUAUUUUGUUUGGGUAAUUUGGUUCAUUAAGUACAUAGCUAAGGUAAUGAACAUCUUUUUCAGUAAUU	1.22 ratio
AUCAAAUACUUUGGGGACAUCAUUAGUGUGGGACAGAGACUGUUGCAAGGAGCUCGGAUUUUAGGAAUUCCUGUUAUCAUAACGGAACAAUACCCCAAAGGACUUGGCAGCACCGUUCAA	0.467 ratio
CUGGCACUCUAUCAGAUAUAUUAAUUUUUAAAUGUAGAUGUAAUUUUAAAAAUGAAUGGCUACUUUACACGUUUAACUAGGGUUUUACUACAUAUGUGUACAUAUGUAUAUAUAUAUAUA	9.84 ratio
GGCCUGGGACCGUCCUGGGCUAGUACAAAUAGCGGCAGUGGAGGCUCGAGAGGAAAGUUUGUUAGUGGAGGCAGUGGUAGAGGCCGUCAUGUACGGUCUUUACACGAAUAGAUGUGUUCU	0.759 ratio
GACUUUGGAACUGGUCCUCGCAACGCAGCCUUCUAUAGCCCUCAUGGACAUAUAUUAGUGCUGGCUGGAUUUGGAAAUCUUCGAGGACAAAUGGAAGUGUGGGAUGUUAAAAACUACAAG	0.31 ratio
UCAGAAGCUGUGCUGGGUCACUUUUCAUAUCCAGAUCCUUCACAGUGGACAGAUGAAGAAUUAGGUAUCCCUCCUGAUGACGAGGACUGACACUGUAAACUCUCUGGACGAGUAGGAGCA	0.73 ratio

Block 5
Target: Phosphate system positive regulatory protein PHO4, full length, GST-tagged (PHO4, Saccharomyces cerevisiae, UniProt P07270, residues 1-312)
Method: competition protein-binding microarray
Form: double-stranded DNA, one strand shown
Matrix: in vitro
Concentration: 2 µM
Setting: whole 60-bp probe, lowest competitor level
With: Cbf1 competitor, 0.05 µM
Reading: higher = stronger binding
Constant ends, left off below: … GTCTTGATTCGCTTGACGCTGCTG
Target sequence (chain): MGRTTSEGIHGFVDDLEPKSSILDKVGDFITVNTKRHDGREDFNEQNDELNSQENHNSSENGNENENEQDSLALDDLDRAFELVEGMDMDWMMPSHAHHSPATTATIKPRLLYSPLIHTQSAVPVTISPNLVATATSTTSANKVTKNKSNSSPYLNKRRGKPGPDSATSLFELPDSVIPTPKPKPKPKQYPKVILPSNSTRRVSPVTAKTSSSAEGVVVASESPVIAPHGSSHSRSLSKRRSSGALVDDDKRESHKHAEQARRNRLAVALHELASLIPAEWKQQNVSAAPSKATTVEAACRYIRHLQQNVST
Sequence	fluorescence intensity
GAAGAGGAGTCTTTGCACGTGTTTCAGTATGCTAAT	20600 a.u.
TCATAGTTGACTGCCCATGTGGCTAATCTCAGTCTC	10900 a.u.
AACCGTACTTGATTTCACCTGCGGGCTTCAAGTCGG	3110 a.u.
CTAACGAAGGTTTGCCTGGTGGGTGACAAGCCAAGT	4180 a.u.
CTAACGAAGGTTTGCAGGGTGGGTGACAAGCCAAGT	4270 a.u.
CAACTTTCTTAGATATGCGTGCCGAAAGGCGACCCA	7090 a.u.
CCGCCGGTCTTTTCTCTCGTGGTGAGTGGTACTTTG	6910 a.u.
CTTCTGTAAATTTTTCACGTGGTGTGAAGCGCCCCG	12800 a.u.
CAATAATATCATAATCATATGACGGTTCTTCGTCAA	3790 a.u.
TGCCAAGCGTGGAGGAACGTGTGAATTCCCTAACTA	12300 a.u.
GACGATGATAAACAGCACGATGTTTCCCCCGGCGGC	9270 a.u.
CCGATGACGAGTTGGTCCGTGATGGCGGAACTAACT	3990 a.u.
TTAAGTTTGTCACCGCTCGTGGCCGCTGTACTGTCT	8440 a.u.
CTACGGAATAGCGGCCACGTTTCCGTAGGTTACTAT	13700 a.u.
CATACCCAACCTTGTAATGTGGGTGAAGATATTTGT	4460 a.u.
CTAACGAAGGTTTGCATTGTGGGTGACAAGCCAAGT	4880 a.u.

Block 6
Target: RNA binding protein fox-1 homolog 2, RRM domain, GST-SBP tag (RBFOX2, Homo sapiens, UniProt O43251-10, residues 100-194)
Method: RNA Bind-n-Seq
Form: RNA
Matrix: in vitro
Concentration: 365 nM
Setting: natural RNA segment, single round, ends assumed
Relative to: no-protein control
Reading: higher = stronger binding
Constant ends, left off below: GGGAGUUCUACAGUCCGACGAUC … UGGAAUUCUCGGGUGCCAA
Construct (chain): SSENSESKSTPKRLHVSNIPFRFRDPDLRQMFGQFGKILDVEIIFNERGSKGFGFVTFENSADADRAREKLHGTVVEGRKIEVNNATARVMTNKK
Sequence	RBNS enrichment (R)
CCACCUCUAGAUACCUUCAGGCAACACAGCCCAGUUUUAACCUCUAGUAUCCAUGACCAAACUAUCCCUGACACAUGAGGACAGGGGCCUCUUCUGGCUGUCAGGAGCAA	0.668
GGAUCUUCCCACUUUGCCACUGGAUGACUUUGGAUGGGUCACUUGUCCUCAGUUUUUCCUAGUCAUAAUGUCAUACGAACCUAAAGAAUAUGAAUGGAUUAAAUGUUAAA	0.802
UUUACCAUCUUUCCUAUUCAUAUAUCUAUAUAGUAAAUUUCACUAGAAAAAUUCUUUUAAAAUUGACAGAAGAUAAUUUAUACCUUUUAUGGACUCUGAAGACACUUCAA	0.379
UUAAUGUUUUGAUUUUUGUUUUCUGAAAUUGGAUUUUAUUUUAUUUUAUCUUAUAAUUUCAGUUCAUCUAAAUUGUGUGUUCUGUACAUGUGAUGUUUGACUGUACCAUU	2.88
GGAACUCGGGCUUCUGCCCAUUGCCCUCUGAAGCUGCUUCCCAUCUGAUGUCACUGGGAGACAGCAGCUGUCUGUGGGGUAUUGGGGUGCAGGUAGAUUAGAGCUGUGAA	1.36
CAUUUGACACCUUUUUAAAUAUCAGGACAAGUCUGAAACAAAGUAGUAAAAUGUAUAUAACUCUUACCUGUUGUCAUUCUUUUUCUUUUAAAUUUGUUGCUAAUCUCUGA	0.411
GUUCUGGAAGAGAUUCAGGUGAAAAGUUGGCGUGGCAUGUUUGAGGACUCUGCGGAUCAGUGCUACAGGAGUACAUCUGCCCUGCCACAUGACUCCAGAAGUCUCUGACC	0.546
GCCACCUUUGCUUCCCGCUCCUUCUGGACAUUCCAGAGCCCUGCACCAAACCCUUACUUGGUGUCUGCACCUCCUUUCCCUCUCUCCAUCUUCCAAUCCCUGGAAAAGUC	0.815
UGGGACAAACCCUGGACAGCCAUGCCAGAGAGAGGCCUUUGACCGGCCCCAGAGCUAAAAGCACCAGAGAAAAUCAAAUGCUUCCUACUCAGCGUGACCCAACUUUUCUA	0.239
AGCUCUGUCUGACCCCACACUCUCCAUUUUCCCCAGCCAAGGCAGACAGCAGCACUAGCAGACGGUCUUAGAACCUUCACACUGUCUCUACCACUACAUGGAAUGACAUA	0.509
AAUCUUCCCUUUGUUGACUGGCCUUCACAGCCAUGGCUGGUGACAACAGAGGAUCGUUGAGAUUGAGCAGCGCUUGGUGAUCUCUCAGCAAACAACCCCUGCCCGUGGGC	0.502
UGUGUGCUGCUUGACCACCCCCCCUUCUGUUCACCUGCCCCCCUUCUGUUUGGCUUUGGCUUUUUGUUGGGGUGAGAGCCCUAGCUCCCAGCUCCCCUCACUAUCUUUUG	0.582

Some of these lines once more (block 3):
Sequence	log fluorescence
ACCCGTACTGGGTCTGGATCGTGCTAG	-0.382 z-score
TGAGATCTCAGTCTCGATTAGTGCTAG	0.618 z-score
TTAGATACCAGTTTCGATTAGTGCTAG	9.53 z-score
GACGAACTGAGTCTCGGGACGTGCTAG	-0.323 z-score
GACGCTATCAGACTGGAGACGTGCTAG	0.0692 z-score
GACGGTTCCGGTTTCGAGACGTGCTAG	4.22 z-score
